Measurements of several laboratories.
Several values in a cell are separate wells, animals, samples, runs or records. ± marks the error that the study gave.
PHO85: Negative regulator of the PHO system (PHO85, Candida albicans, UniProt Q9HGY5)
ZBTB11/CRBN: ZBTB11/CRBN (Homo sapiens, UniProt O95625+Q96SW2)
TOP2A: DNA topoisomerase 2-alpha (TOP2A, Homo sapiens, UniProt P11388)
T1: ssDNA, aptamer; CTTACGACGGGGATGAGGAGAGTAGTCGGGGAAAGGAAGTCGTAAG

| Compound | target | assay | test system | setting | how to read | quantity | value |
| --- | --- | --- | --- | --- | --- | --- | --- |
| O=C(O)c1ccc(Nc2ncc3c(n2)-c2ccc(Cl)cc2C(c2c(F)cccc2F)=NC3)cc1 | human PAK5(h) | kinase activity | – | 1 µM | – | remaining activity | 100% |
| Nc1ncnc2c1ncn2[C@@H]1O[C@H](CSCC[C@H](N)C(=O)O)[C@@H](O)[C@H]1O | DNA adenine methyltransferase CamA (Clostridioides difficile, UniProt Q183J3) | ITC | – | concentration not given, together with: 50 µM DNA | reference: without DNA | cofactor binding decrease | ~2 |
| NC(N)=NCCC[C@H](N)C(=O)Nc1ccc2ccccc2c1 | rat neuron-specific aminopeptidase | substrate | – | MW 110 kDa | – | kcat | 30.8 s⁻¹ |
| c1ccc(-c2n[nH]cc2-c2ccnc3ccccc23)nc1 | PHO85 | kinase binding, competitor, MIB/MS competition, measured: PHO85 | Candida albicans cell lysate | 1 µM | reference: DMSO | log2 fold change | 1.43 |
| C=C1C(=O)O[C@@H]2C[C@@]3(C)CCCC(=C)[C@@H]3C[C@H]12 | NR1D1 (Homo sapiens, UniProt P20393) | reporter gene, Gal4 hybrid reporter | – | 10 µM | reference: vehicle | activation | 1.23 fold |
| NC(=O)c1ccc[n+]([C@@H]2O[C@H](COP(=O)(O)OP(=O)(O)OC[C@H]3O[C@@H](n4cnc5c(N)ncnc54)[C@H](O)[C@@H]3O)[C@@H](O)[C@H]2O)c1 | ALDH-137 | enzyme activity, cofactor, NADH formation | – | apparent Km, together with: hexanal | – | Km | 29 ± 1 µM |
| CC(C)(NCCCc1ccc(C(F)(F)F)c(Cl)c1)c1cccc(NC2=CC(=O)N(C3CCC(=O)NC3=O)C2=O)c1 (stereo not drawn) | ZBTB11/CRBN | protein degradation, degrader, HiBiT luminescence | MOLT-4 | – | – | Dmax | 32% |
| O=C(COP(=O)(O)O)[C@@H](O)[C@H](O)[C@H](O)COP(=O)(O)O | Beta-actin-like protein 2 (ACTBL2, Homo sapiens, UniProt Q562R1) | thermal proteome profiling, measured: ACTBL2 | HepG2 cell lysate | concentration not given, 57 over 37 °C, mean | reference: compound over control | thermal stability ratio | 0.698 |
| [H]/N=C(/N)NCC(=O)O | SLC6A6 (Homo sapiens, UniProt P31641, L306A) | binding, microscale thermophoresis | – | 250 µM, room temperature, together with: 50 nM labelled protein | higher = more binding | normalised MST signal | -0.0141 |
| O=c1nc(SCc2cc(F)cc(C(F)(F)F)c2)nc(SCc2csc3ccc(Cl)cc23)[nH]1 | TOP2A | DNA cleavage | – | 7.8 µM | – | mean linear DNA | 0% |
| Oc1ccccc1-c1n[nH]cc1-c1ccnc2ccccc12 | PHO85 | kinase binding, MIB/MS competition | Candida albicans lysate | 1 µM | reference: DMSO, negative = stronger binding | log2 fold change | 0.11 |
| Nc1ccc(C(=O)O)cc1 | BEST1, with wild-type BEST1 (Homo sapiens, UniProt O76090, A243T) | whole-cell patch clamp | HEK293 co-expressing WT and A243T mutant | concentration not given, membrane potential -20 mV | – | current density | -6.43 pA/pF and -1.36 pA/pF and -3.82 pA/pF and -5.67 pA/pF and -5.38 pA/pF and -4.78 pA/pF and -1.65 pA/pF |
| CC(NC(=O)CCCc1ccc2ccc3cccc4ccc1c2c34)C(=O)NO (stereo not drawn) | HDAC8 (Homo sapiens, UniProt Q9BY41) | ITC | Tris-HCl buffer | concentration not given, 293 K | – | binding stoichiometry | 0.95 |
| CCCCc1cn2c(n1)c(N)nc1ccccc12 | TLR7 (Homo sapiens, UniProt Q9NYK1) | reporter gene, agonist, NF-κB reporter | HEK-Blue TLR7 | – | – | EC50 | inactive |
| NCCCC[C@H](N)C(=O)Nc1ccc2ccccc2c1 | rat neuron-specific aminopeptidase | substrate | – | MW 110 kDa | – | kcat | 30.8 s⁻¹ |
| O=C(CCCc1ccccc1)C(=O)NCCc1ccc(Oc2ccc(C(F)(F)F)cn2)cc1 | PREP (Homo sapiens, UniProt P48147) | inhibitor, FP-biotin chemoproteomics | HepG2 | concentration not given | reference: DMSO, lower = stronger inhibition | probe-enriched protein abundance | 265000 a.u. and 214000 a.u. and 276000 a.u. |
| COc1cc(Nc2ncc3c(n2)-c2ccc(Cl)cc2C(c2c(F)cccc2OC)=NC3)ccc1C(=O)O | STK25 | kinase activity | – | 1 µM | – | remaining activity | 96% |
| O=S(=O)(O)C1CCNCC1 | SLC6A6 (Homo sapiens, UniProt P31641, Y138A) | binding, microscale thermophoresis | – | 1.95 µM, room temperature, together with: 50 nM labelled protein | higher = more binding | normalised MST signal | -0.011 |
| Nc1ncnc2c1ncn2[C@@H]1O[C@H](COP(=O)(O)CP(=O)(O)OP(=O)(O)O)[C@@H](O)[C@H]1O | P2X purinoceptor 1 (P2RX1, Homo sapiens, UniProt P51575, R139A) | saturation binding | HEK293 | 130 nM | – | specific binding | 5630 CCPM and 4160 CCPM |
| c1ccc(C(NCc2cccnc2)(c2ccccc2)c2ccccc2)cc1 | KCNQ1 (Homo sapiens, UniProt P51787, E160R/R237E) | concentration-response, tail currents | – | AO state-locked mutant | – | Hill coefficient | 0.49 |
| Nc1nc2c(ncn2[C@@H]2O[C@H](COP(=O)(O)O)[C@@H](O)[C@H]2O)c(=O)[nH]1 | GUK1 (Homo sapiens, UniProt Q16774, S37A) | enzyme activity, NADH-coupled | – | 31.25 µM | – | reaction rate | -1.4 s⁻¹ and 4.22 s⁻¹ and -0.268 s⁻¹ |
| N=c1n(CCN2CCCCC2)c2ccccc2n1CC(O)c1cccc(Br)c1 (stereo not drawn) | CatSper channel complex (Homo sapiens, UniProt Q7RTX7+Q86XQ3+Q8NEC5+Q96P56) | ion current, whole-cell patch clamp | human sperm | 10 µM, at +80 mV | – | outward current density | 35 ± 4 pA/pF |
| Nc1ncnc2c1ncn2[C@@H]1O[C@H](COP(=O)(O)OP(=O)(O)OP(=O)(O)O)[C@@H](O)[C@H]1O | T1, ssDNA, aptamer | ITC | – | – | – | Kd | 782 nM |

| Compound | target | assay | test system | setting | how to read | quantity | value |
| --- | --- | --- | --- | --- | --- | --- | --- |
| CC[C@@H](C)[C@@H](NC(=O)[C@@H](Cc1ccc(O)cc1)NC(=O)[C@H]1CCCN1C(=O)[C@@H](CCCNC(=N)N)NC(=O)[C@H](N)Cc1c[nH]cn1)C(=O)N[C@H](C)C(=O)N[C@H](Cc1c[nH]cn1)C(=O)N[C@H](CCCNC(=N)N)C(=O)N[C@@H](C(=O)N[C@H](Cc1ccc(O)cc1)C(=O)N[C@H](CO)C(=O)N[C@H](Cc1ccccc1)C(N)=O)C(C)C | Transferrin receptor protein 1 (Tfrc, Mus musculus, UniProt Q62351) | flow cytometry | RAW264.7 | 2 h, pH 7.4, unit not given | reference: 0 h | surface expression | 0.955 and 0.967 |
| Nc1ncnc2c1ncn2[C@@H]1O[C@H](CSCC[C@H](N)C(=O)O)[C@@H](O)[C@H]1O | O-methyltransferase (Sorghum bicolor, UniProt A0A1B6PFV1) | isothermal titration calorimetry | – | concentration not given, apo protein | – | binding stoichiometry | 0.89 ± 0.059 sites |
| CN(C)CCCN1c2ccccc2CCc2ccccc21 | SLC6A4 (Homo sapiens, UniProt P31645) | binding, antagonist, radioligand binding | – | – | – | Hill coefficient | 1 |
| Nc1ncnc2c1ncn2[C@@H]1O[C@H](COP(=O)(O)OP(=O)(O)O)[C@@H](O)[C@H]1O | CKMT1A (Homo sapiens, UniProt P12532) | substrate, Kinase-Glo luminescence | – | pH 7.0, reverse reaction, WT mutant, together with: second substrate in excess | – | kcat | 41 ± 14 s⁻¹ |
| Cc1cc(-c2ccnc3[nH]cc(F)c23)cc(F)c1[C@@]1(O)[C@H](C)CN(C(=O)CN)C[C@@H]1C | STK38 (Homo sapiens, UniProt Q15208) | ATP probe binding, KiNativ, measured: Lys2 site | HEK293T cell lysate | 10 µM | – | inhibition | 57.7% |
| CC(=O)N[C@H](C(=O)N1C[C@H](O)C[C@H]1C(=O)NCc1ccc(-c2scnc2C)cc1)C(C)(C)SCCCCCCNC(=O)C[C@@H]1N=C(c2ccc(Cl)cc2)c2c(sc(C)c2C)-n2c(C)nnc21 | Bromodomain-containing protein 3, BD2 (BRD3, Homo sapiens, UniProt Q15059) | binding, ITC | – | 25 °C, compound in cell, protein in syringe | – | ΔG | -10.1 ± 0.1 kcal/mol |
| CCC(C)(NCCc1cccc(C(F)(F)F)c1Cl)c1cccc(NC2=CC(=O)N(C3CCC(=O)NC3=O)C2=O)c1 (stereo not drawn) | ZBTB11/CRBN | protein degradation, degrader, HiBiT luminescence | MOLT-4 | – | – | Dmax | 66% |
| CC[C@@H]1[C@H](F)C(=O)N[C@@H]1COc1nccc2cc(C(N)=O)c(OC)cc12 | MAP4K5 (Homo sapiens, UniProt Q9Y4K4) | ATP-site probe binding, ActivX profiling, measured: KHS1 | THP-1 cell lysate | 0.04 mM, Lys1 site | – | inhibition | -0.0349% |
| Nc1ncnc2c1ncn2[C@@H]1O[C@H](CO[P@](=O)(O)O[P@](=O)(O)O[P@@](=O)(O)S)[C@@H](O)[C@H]1O | GUK1 (Homo sapiens, UniProt Q16774) | ITC | – | molar ratio 0.4975 | – | ΔH | -1.54 kcal/mol |
| Cc1n[nH]c2ccc(-c3cc(OC[C@@H](N)Cc4ccccc4)cnc3-c3ccoc3)cc12 | PHO85 | kinase binding, competitor, MIB/MS competition, measured: PHO85 | Candida albicans cell lysate | 10 µM | reference: DMSO | log2 fold change | -0.87 |
| CN1CCC[C@H]1c1cccnc1 | Chrnd/Chrna1/Chrne (Mus musculus, UniProt P02716+P04756+P20782, G173R) | – | – | – | – | kon | 4.33e+07 M⁻¹ s⁻¹ |
| Nc1nc2c(ncn2[C@@H]2O[C@@H]3COP(=O)(O)O[C@H]4[C@@H](O)[C@H](n5cnc6c(=O)[nH]c(N)nc65)O[C@@H]4COP(=O)(O)O[C@H]3[C@H]2O)c(=O)[nH]1 | Cell cycle histidine kinase CckA, DHp-CA domains (Caulobacter vibrioides, UniProt Q9X688) | binding, ITC | – | together with: ADP 5 mM | – | association constant | 29300 ± 4870 M⁻¹ |
| CCC(=O)NS(=O)(=O)c1ccc(-c2c(-c3ccccc3)noc2C)cc1 | NR5A2 (Homo sapiens, UniProt O00482) | reporter gene, Gal4 hybrid reporter | – | 50 µM | reference: vehicle | activation | 0.39 fold |
| [O-][S+]1CCCCS1 (stereo not drawn) | SOD1 (Homo sapiens, UniProt P00441, G94A) | target engagement | SOD1 G93A transgenic mice, blood | subcutaneous, 30 mg/kg twice daily | – | SOD1 dimer level | 85.4% and 85.8% |
| CCN(CCO)CCCC(C)Nc1ccnc2cc(Cl)ccc12 (stereo not drawn) | SCN5A (Homo sapiens, UniProt Q14524) | sodium current, whole-cell patch clamp | – | 30 µM, without ATX-II | – | half-inactivation voltage (V1/2) | -78.1 mV and -93.7 mV and -86.7 mV |
| COc1cc(-c2cc(C(C)=O)n3ccccc23)cc(OC)c1Cn1ccnc1 | Bromodomain-containing protein 3, BD1 (BRD3, Homo sapiens, UniProt Q15059) | – | – | – | – | ΔTm | 1.8 °C |
| CC(C)CCC[C@@H](C)[C@H]1CC[C@H]2[C@@H]3CC=C4C[C@@H](O)CC[C@]4(C)[C@H]3CC[C@]12C | CYP11A1 (Homo sapiens, UniProt P05108) | – | – | together with: 40-fold excess adrenodoxin | reference: no adrenodoxin | Kd increase | 1.7 fold |
| O=c1nc(SCc2cc(F)cc(C(F)(F)F)c2)nc(SCc2ccc3sccc3c2)[nH]1 | TOP2A | ATPase activity | – | 15.6 µM, together with: ATP 0.25 mM | – | ATP hydrolysis rate | 0.871 µM/min and 0.218 µM/min |
| O=c1cc(-c2ccc([N+](=O)[O-])cc2)[nH]c2c(-c3ccc(Cl)cc3)c(Cc3ccccc3)nn12 | tRNA N6-adenosine threonylcarbamoyltransferase (Homo sapiens, UniProt Q9NPF4) | thermal stability, binder, thermal proteome profiling | RD, cell lysate | 50 µM, 0.5% DMSO | reference: DMSO vehicle | melting temperature shift | 3.7 °C |
| O=C(C[C@@H](C(F)F)n1ccc(F)n1)N1CCC(O)(Cn2cnc3c(cnn3-c3ccc(F)cc3)c2=O)CC1 | USP7 (Homo sapiens, UniProt Q93009, V517A) | isothermal titration calorimetry | – | concentration not given, USP7 V517A | – | binding enthalpy | -15.7 ± 0.368 kcal/mol |
| C=CC(=O)N1CCC(COCC(=O)N2CCN(c3nc(-c4cnc(N)nc4C(F)F)nc(N4CCOC[C@@H]4C)n3)CC2)CC1 | Mast/stem cell growth factor receptor Kit, autoinhibited (KIT, Homo sapiens, UniProt P10721) | KINOMEscan | – | 1 µM | – | remaining binding | 63% |
| CN1CCN(c2cc(-c3ccncc3)c(-c3ccc4ccccc4c3)nn2)CC1 | C5AR1 (Homo sapiens, UniProt P21730) | agonist, FLIPR | – | 12.5 µM | – | activation | -2.1% |

Excerpt of the above:
| Compound | target | assay | test system | setting | how to read | quantity | value |
| --- | --- | --- | --- | --- | --- | --- | --- |
| Nc1ncnc2c1ncn2[C@@H]1O[C@H](CO[P@](=O)(O)O[P@](=O)(O)O[P@@](=O)(O)S)[C@@H](O)[C@H]1O | GUK1 (Homo sapiens, UniProt Q16774) | ITC | – | molar ratio 0.4975 | – | ΔH | -1.54 kcal/mol |
| CC(C)(NCCCc1ccc(C(F)(F)F)c(Cl)c1)c1cccc(NC2=CC(=O)N(C3CCC(=O)NC3=O)C2=O)c1 (stereo not drawn) | ZBTB11/CRBN | protein degradation, degrader, HiBiT luminescence | MOLT-4 | – | – | Dmax | 32% |
